Measured values gathered from unrelated publications.
Lines come from different studies, so protocols differ. Numbers after ± are the reported error.

COc1ccc(Cc2cnc(N)nc2N)cc1OC
inhibition (THP-1; pyroptotic LDH release; 2 µM, 40 min, with: LPS then nigericin): -25.8%

CCO[C@H]1CCN(Cc2c(OC)cc(C)c3[nH]ccc23)[C@H](c2ccc(C(=O)O)cc2)C1
incidence of abdominal pain (PNH patients, active haemolysis; oral, 50 mg, 4 weeks, treatment): 0%

COc1cc(N2CCC3(CCN(C)CC3)CC2)ccc1Nc1ncc(Cl)c(Nc2ccccc2P(C)(C)=O)n1
Ka (population PK model; human; oral, final model without outliers): 1.06 h⁻¹

COc1cccc(-c2n[nH]c(SCc3ccccn3)n2)c1OC
Cmax (Sprague-Dawley rat, male, plasma; oral gavage, 10 mg/kg): 32500 ng/mL

CCO[C@H]1CCN(Cc2c(OC)cc(C)c3[nH]ccc23)[C@H](c2ccc(C(=O)O)cc2)C1
total AUC(0-t) (human mild hepatic impairment, plasma; oral, 200 mg single dose, geometric mean): 52200 ng·h/mL

O=C1CC[C@H](N2Cc3cc(N4CCN(CC5CCN(c6ccc([C@@H]7c8ccc(O)cc8CC[C@@H]7c7ccccc7)cc6)CC5)CC4)ccc3C2=O)C(=O)N1
participants with TEAE abdominal pain (human; oral, 200 mg, with: rosuvastatin 10 mg): 0%

CCCCOc1nc(N)c2c(n1)N(Cc1cccc(CN3CCCC3)c1)CC(=O)N2
serious TEAE (human; oral, 2 mg, drug interaction trial): 0%

C=CCN1CC(=O)N2[C@@H](Cc3ccc(O)cc3F)C(=O)N(Cc3cccc(N4CC(N5CCN(CC)CC5)C4)n3)C[C@@H]2N1C(=O)NCc1ccccc1
treatment-related decreased appetite (advanced solid tumour patients; oral, 100 mg twice daily, grade ≥3, dose-escalation): 0%

Cc1cc(C(=O)NC(C)(C)COc2cccc3c2C(N)=NS(=O)(=O)N3)cc(C)n1
dose-normalised AUC(0-last) (Sprague-Dawley rat, male, plasma; oral, 10 mg/kg): 1.81 ng·h/mL/mg/kg

C=CCn1c(=O)c2cnc(Nc3ccc(N4CCN(C)CC4)cc3)nc2n1-c1cccc(C(C)(C)O)n1
Tmax (human; oral, 175 mg twice daily, monotherapy lead-in, -5 days; median): 2 h

O=c1nc(N2CCN(CC3CCCCC3)CC2)sc2c([N+](=O)[O-])cc(C(F)(F)F)cc12
fraction unbound (equilibrium dialysis; human plasma; 1 µM, 18 h, pH 7.4): 0.004

O=C(Nc1nc2cccc(-c3ccc(CN4CCS(=O)(=O)CC4)cc3)n2n1)C1CC1
patients with adverse event (refers to: abdominal discomfort; rheumatoid arthritis patients; oral, 75 mg once daily, 4 weeks, any relatedness): 0%

NC(=O)N1c2ccccc2C=Cc2ccccc21
adverse events incidence (refers to: conjunctival haemorrhage; human male; oral, dose not given, CTCAE on-treatment AEs): 7%

CCc1cc(C(=O)NC)c2nccc(N3CCc4c(cc(Cn5ccnc5)cc4-c4cn(C)nc4C(F)(F)F)C3=O)c2c1
serum ALT activity (Sprague Dawley rats; oral, 100 mg/kg once daily, 7 days): 59.3 ± 7.5 U/L

N#C[C@@]1(c2ccc3c(N)ncnn23)O[C@H](CO)[C@@H](O)[C@H]1O
bound fraction (plasma protein binding; rat plasma; 1 µM): 0.0294

CC[C@H](C)[C@H](NC(=O)[C@H](Cc1ccccc1)NC(=O)[C@H](CCC(=O)O)NC(=O)[C@H](CCCCNC(=O)COCCOCCNC(=O)COCCOCCNC(=O)CC[C@H](NC(=O)CCCCCCCCCCCCCCCCC(=O)O)C(=O)O)NC(=O)[C@H](C)NC(=O)[C@H](C)NC(=O)[C@H](CCC(N)=O)NC(=O)CNC(=O)[C@H](CCC(=O)O)NC(=O)[C@H](CC(C)C)NC(=O)[C@H](Cc1ccc(O)cc1)NC(=O)[C@H](CO)NC(=O)[C@H](CO)NC(=O)[C@@H](NC(=O)[C@H](CC(=O)O)NC(=O)[C@H](CO)NC(=O)[C@@H](NC(=O)[C@H](Cc1ccccc1)NC(=O)[C@@H](NC(=O)CNC(=O)[C@H](CCC(=O)O)NC(=O)C(C)(C)NC(=O)[C@@H](N)Cc1cnc[nH]1)[C@@H](C)O)[C@@H](C)O)C(C)C)C(=O)N[C@@H](C)C(=O)N[C@@H](Cc1c[nH]c2ccccc12)C(=O)N[C@@H](CC(C)C)C(=O)N[C@H](C(=O)N[C@@H](CCCNC(=N)N)C(=O)NCC(=O)N[C@@H](CCCNC(=N)N)C(=O)NCC(=O)O)C(C)C
change in QT interval (healthy human; subcutaneous, 1.5 mg once weekly, 0 h, steady state; relative to: placebo, baseline): -16.5 ms

NS(=O)(=O)NCCNc1nonc1C(=NO)Nc1ccc(F)c(Br)c1
inhibition (THP-1; pyroptotic LDH release; 2 µM, 40 min, with: LPS then nigericin): -4.59%

For quick reference, copied from above:
O=C1CC[C@H](N2Cc3cc(N4CCN(CC5CCN(c6ccc([C@@H]7c8ccc(O)cc8CC[C@@H]7c7ccccc7)cc6)CC5)CC4)ccc3C2=O)C(=O)N1
participants with TEAE abdominal pain (human; oral, 200 mg, with: rosuvastatin 10 mg): 0%

CCCCOc1nc(N)c2c(n1)N(Cc1cccc(CN3CCCC3)c1)CC(=O)N2
serious TEAE (human; oral, 2 mg, drug interaction trial): 0%
